Results collected from several papers.
Protocols differ between the studies behind these lines. Several values in a cell are separate wells, animals, samples, runs or records.
rep main protease: Replicase polyprotein 1ab, main protease (rep, Severe acute respiratory syndrome coronavirus 2, UniProt P0DTD1)
Spike glycoprotein: Spike glycoprotein (Severe acute respiratory syndrome coronavirus 2, UniProt P0DTC2)

Substance | target or system | test | system | setting | scale | endpoint | result
CC[C@H](C)[C@H](NC(=O)OCc1ccccc1)C(=O)N[C@@H](CCC(=O)OC)C(=O)N[C@H](C(=O)N[C@@H](CC(=O)OC)C(=O)CF)[C@@H](C)O | rep main protease | reporter gene (Gaussia luciferase), inhibitor |  | 20 µM |  | inhibition | -0.408%
Nc1ncnc2c([C@@H]3N[C@H](CO)[C@@H](O)[C@H]3O)c[nH]c12 | Marburg virus | viral replication | HeLa, Angola | 3.1 µM |  | inhibition | 34%
O=C(NC[C@H](NC(=O)c1cncc2ccccc12)c1ccc2ccccc2c1)C1=COCC1 | rep main protease | enzyme activity, inhibitor |  | 5 µM, run 1 |  | inhibition | 13.3%
C[C@@H]1O[C@@H](Oc2c(-c3cc(O)c(O)c(O)c3)oc3cc(O)cc(O)c3c2=O)[C@H](O)[C@H](O)[C@H]1O | Spike glycoprotein | binding, biolayer interferometry |  |  |  | kon | 38.9 M⁻¹ s⁻¹
COC(=O)c1nc(C(F)(F)F)n2c1CN(C(=O)C[C@H](N)Cc1cc(F)c(F)cc1F)CC2.O=P(O)(O)O | rep main protease | reporter gene (Gaussia luciferase), inhibitor |  | 20 µM |  | inhibition | 0.746%
Nc1ncnc2c1ncn2[C@@H]1CCCN(C(=O)c2ccc(S(=O)(=O)F)cc2)C1 | cya (Bacillus anthracis, UniProt P40136) |  |  |  |  | kinact | 0.00065 s⁻¹
CC[C@H](C)[C@H](NC(=O)[C@H](CC(C)C)NC(=O)[C@H](Cc1c[nH]c2ccccc12)NC(=O)[C@H](CCC(N)=O)NC(=O)[C@@H](NC(=O)[C@H](Cc1ccccc1)NC(=O)[C@H](C)NC(=O)[C@H](CCCCNC(=O)COCCOCCNC(=O)COCCOCCNC(=O)CC[C@H](NC(=O)CCCCCCCCCCCCCCCCCCC(=O)O)C(=O)O)NC(=O)[C@H](CCC(N)=O)NC(=O)[C@H](C)NC(=O)[C@@H](NC(=O)[C@H](CCCCN)NC(=O)[C@H](CC(=O)O)NC(=O)[C@H](CC(C)C)NC(=O)C(C)(C)NC(=O)[C@@H](NC(=O)[C@H](CO)NC(=O)[C@H](Cc1ccc(O)cc1)NC(=O)[C@H](CC(=O)O)NC(=O)[C@H](CO)NC(=O)[C@@H](NC(=O)[C@H](Cc1ccccc1)NC(=O)[C@@H](NC(=O)CNC(=O)[C@H](CCC(=O)O)NC(=O)C(C)(C)NC(=O)[C@@H](N)Cc1ccc(O)cc1)[C@@H](C)O)[C@@H](C)O)[C@@H](C)CC)[C@@H](C)CC)C(C)C)C(=O)N[C@@H](C)C(=O)NCC(=O)NCC(=O)N1CCC[C@H]1C(=O)N[C@@H](CO)C(=O)N[C@@H](CO)C(=O)NCC(=O)N[C@@H](C)C(=O)N1CCC[C@H]1C(=O)N1CCC[C@H]1C(=O)N1CCC[C@H]1C(=O)N[C@@H](CO)C(N)=O |  | measured: treatment-emergent medical device site pruritus | healthy subjects | 0.5 mg, multiple ascending dose |  | subjects with adverse event | 33.3%
Theaflavin 3,3'-digallate | rep main protease | enzyme activity, Gaussia luciferase reporter | SARS-CoV-2 | 20 µM |  | inhibition | -3.13%
CC1(C)CC[C@]2(C(=O)O[C@@H]3O[C@H](CO)[C@@H](O)[C@H](O)[C@H]3O)CC[C@]3(C)C(=CC[C@@H]4[C@@]5(C)CC[C@H](O[C@@H]6O[C@H](C(=O)O)[C@@H](O)[C@H](O)[C@H]6O)C(C)(C)[C@@H]5CC[C@]43C)[C@@H]2C1 | Spike glycoprotein | binding, BLI |  |  |  | kon | 3970 M⁻¹ s⁻¹
Cn1cnc(Cn2c(=O)[nH]/c(=N\c3cc4cn(C)nc4cc3Cl)n(Cc3cc(F)c(F)cc3F)c2=O)n1 |  |  | human, normal renal function | oral, 375 mg, decreased GFR TEAE, Severe severity |  | patients with adverse event | 0%
CO[C@H]1/C=C/O[C@@]2(C)Oc3c(C)c(O)c4c(O)c(c(/C=N/N5CCN(C)CC5)c(O)c4c3C2=O)NC(=O)/C(C)=C\C=C\[C@H](C)[C@H](O)[C@@H](C)[C@@H](O)[C@@H](C)[C@H](OC(C)=O)[C@@H]1C | Spike glycoprotein | binding, BLI |  |  |  | kon | 3520 M⁻¹ s⁻¹
O=C(N[C@@H]1CCCC[C@]12CCCN(C(=O)c1cc[nH]c(=O)c1)C2)c1cncc2ccccc12 | rep main protease | enzyme activity, inhibitor |  | 5 µM |  | inhibition | 10.5%
CC[C@H](C)[C@H](NC(=O)[C@@H]1CCCN1C(=O)[C@H](C)NC(=O)[C@@H]1CSSC[C@@H]2NC(=O)[C@H](CC(=O)O)NC(=O)[C@H](CCCNC(=N)N)NC(=O)[C@H](CCC(=O)O)NC(=O)[C@H](CCCNC(=N)N)NC(=O)CNC(=O)[C@H](CC(=O)O)NC(=O)[C@@H]3CSSC[C@H](NC(=O)[C@H](CCC(=O)O)NC(=O)[C@H](CC(C)C)NC(=O)CNC(=O)[C@H](C)NC(=O)[C@H](CSSC[C@H](NC(=O)[C@H](Cc4ccccc4)NC(=O)[C@@H](N)CO)C(=O)N[C@@H](CC(C)C)C(=O)N[C@@H](C(C)C)C(=O)N[C@@H](CCCCN)C(=O)N[C@@H](Cc4c[nH]c5ccccc45)C(=O)N[C@@H](CCCCN)C(=O)N[C@@H](CCC(N)=O)C(=O)N3)NC2=O)C(=O)N[C@@H](Cc2c[nH]c3ccccc23)C(=O)N[C@@H](CCCCN)C(=O)N[C@@H](CCCNC(=N)N)C(=O)N[C@@H](CO)C(=O)N[C@@H](CCCNC(=N)N)C(=O)N[C@@H](CC(N)=O)C(=O)N[C@@H](CCCCN)C(=O)N[C@@H](CO)C(=O)N[C@@H](CO)C(=O)N[C@@H](C(C)C)C(=O)N1)C(=O)N[C@H](C(=O)O)[C@@H](C)O | ASIC1 (Homo sapiens, UniProt P78348) | binding, SPR |  | pH 7.5 |  | kon | 2.29e+07 M⁻¹ s⁻¹
Cc1ccncc1C(=O)N[C@@H](CNC(=O)C1=NOCC1)c1ccc2ccccc2c1 | rep main protease | enzyme activity, inhibitor |  | 5 µM, run 1 |  | inhibition | 10%
O=S(=O)(NC1CCC(c2cc(F)ccc2F)(S(=O)(=O)c2ccc(Cl)cc2)CC1)C(F)(F)F (centres unmarked) | rep main protease | reporter gene (Gaussia luciferase), inhibitor | HEK293T | 20 µM |  | inhibition | -1.05%
C[C@H](NC(=O)c1[nH]nc2nc[nH]c(=O)c12)[C@@H]1CCN(C(=O)c2cc(-c3ccccc3)ccn2)C1 | rep main protease | enzyme activity, inhibitor |  | 5 µM, run 2 |  | inhibition | 15.2%
CCc1c(C(=O)C(N)=O)c2c(OCC(=O)O)cccc2n1Cc1ccccc1 | Daboia russelii venom phospholipase A2 | enzyme activity, inhibitor | TN population | 0.1 µM, with: NOB substrate | baseline: venom alone | remaining activity | 97% and 100%

Excerpt of the above:
Substance | target or system | test | system | setting | scale | endpoint | result
CC1(C)CC[C@]2(C(=O)O[C@@H]3O[C@H](CO)[C@@H](O)[C@H](O)[C@H]3O)CC[C@]3(C)C(=CC[C@@H]4[C@@]5(C)CC[C@H](O[C@@H]6O[C@H](C(=O)O)[C@@H](O)[C@H](O)[C@H]6O)C(C)(C)[C@@H]5CC[C@]43C)[C@@H]2C1 | Spike glycoprotein | binding, BLI |  |  |  | kon | 3970 M⁻¹ s⁻¹
